Measurements from different studies.
A part holds a random share of what one study measured.

Block 1 — method: protein-binding microarray; molecule type: double-stranded DNA, one strand shown; matrix: in vitro; concentration: not given; direction: higher = stronger binding; measurement: E-score
Target: Transcriptional repressor CTCF (CTCF, Homo sapiens, UniProt P49711, residues 1-727, full length assumed)
UniProt P49711, sequence (whole entry, looked up): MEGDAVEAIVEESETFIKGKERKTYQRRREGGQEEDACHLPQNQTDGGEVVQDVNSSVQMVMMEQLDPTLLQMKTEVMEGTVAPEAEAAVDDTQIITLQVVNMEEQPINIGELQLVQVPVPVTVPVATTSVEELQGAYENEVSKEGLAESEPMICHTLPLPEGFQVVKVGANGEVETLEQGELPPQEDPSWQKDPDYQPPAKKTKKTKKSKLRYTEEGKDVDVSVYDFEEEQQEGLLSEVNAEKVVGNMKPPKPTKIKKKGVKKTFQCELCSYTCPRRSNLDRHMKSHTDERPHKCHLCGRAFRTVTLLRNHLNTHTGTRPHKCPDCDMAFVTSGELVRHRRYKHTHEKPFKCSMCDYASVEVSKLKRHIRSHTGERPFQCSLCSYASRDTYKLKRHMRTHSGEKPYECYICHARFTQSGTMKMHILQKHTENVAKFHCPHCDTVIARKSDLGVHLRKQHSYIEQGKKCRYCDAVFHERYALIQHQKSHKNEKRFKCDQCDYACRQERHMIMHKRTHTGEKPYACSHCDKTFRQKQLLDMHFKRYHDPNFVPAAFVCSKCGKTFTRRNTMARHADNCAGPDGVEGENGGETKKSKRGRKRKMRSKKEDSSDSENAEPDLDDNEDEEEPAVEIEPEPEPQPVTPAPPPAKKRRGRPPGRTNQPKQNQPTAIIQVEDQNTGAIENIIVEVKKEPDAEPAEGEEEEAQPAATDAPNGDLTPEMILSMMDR
Setting: k-mer, scored over probes, only values ≥0.25
AGTATTAA: 0.275
CATTAAAA: 0.308
AATTATAA: 0.299
GTATTACA: 0.342
GAATATTA: 0.307
AACCACTA: 0.374
AATTTGTA: 0.285
CGCATTTA: 0.276
CGATAGCG: 0.265
AAATATAC: 0.284
AACAAATA: 0.342
TGGCGCCA: 0.331
ATTAATTC: 0.298
ATATACGA: 0.269
AAACAGTA: 0.266
AATAAACA: 0.308
CAAAATAA: 0.294
ATGGCGCG: 0.251
CCGCCAGG: 0.351
GTAGTATA: 0.307
GCGCATAC: 0.322
CCATAATA: 0.287
GGTGCGCA: 0.341
TAAATACA: 0.28
GCGCAAAC: 0.319

Block 2 — method: RNA Bind-n-Seq; molecule type: RNA; matrix: in vitro; concentration: 365 nM; baseline: no-protein control; direction: higher = stronger binding; measurement: RBNS enrichment (R)
Target: RNA binding protein fox-1 homolog 2, RRM domain, GST-SBP tag (RBFOX2, Homo sapiens, UniProt O43251-10, residues 100-194)
Setting: natural RNA segment, single round, ends assumed
Shared flanks, not repeated: GGGAGUUCUACAGUCCGACGAUC … UGGAAUUCUCGGGUGCCAA
Target sequence (chain): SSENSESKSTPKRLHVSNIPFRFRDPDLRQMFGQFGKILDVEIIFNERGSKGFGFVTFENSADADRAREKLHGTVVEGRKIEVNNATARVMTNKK
ACUUACAUUCAAAGGGGAACAGAAAUCAUUCUAAGCAGGAAAAUACUUCCACUUUUUUUUUUUCAAGUAUCUCUCUAAUAACUAAAUGCCACUUAUUUGCAUUCUCCUUG: 0.436
GUGGCACGCCUUGUGCUGACGACCCCCACUGGGCUACAGUCACAGGAGAAUUGAGACUUGGAAAAGGCUUGGGUACAAUUAAGAAAAACCCUACAUCCCACCCUCCUCUU: 0.204
AGCUGCCAGCCACAGGUUUCUAUUCUGAGUUCUCCAGUCUUGUGAAAGAGGAGAAUUUCCCAGUCAGGUAGCCAGGAGAACAGUGCCACCCUGCGAUUGUGCCACCCUGU: 0.332
GUGUUUUGACAUCAUGUAAACCUAAGCACGUAGAGAUGAUUCGGAUUUGACAAAAUAACAUUUGAGUAUCCGAUUCGCCAUCACCCCCUACCCCAGAAAUAGGACAAUUC: 0.344
GGAGUGGGUGGCCCCAUCACUAUUGGGACCAUCGCGUCCCUGCACAGCCCACACCCGGGGGCCCAGAGUCCUGGGCUGGACGCCACCCUUCUCACCCCGAGCUUGCCUCC: 0.204
CUGUCAUUUGCCAGUUGAUGGAGCCAAGUUGACCUUUGGUUCUGGUGCUUCACCCAGUUUGGAACUUUAAUCUGUAACCCAUGGAUCCACAGAUUUUCUUGGGAGCUUGA: 0.391
UCCAACCAAAAUGUCAAGUCCGUUCCGAAGGCAUUUUCCACUAGUUUUUGGACUAUGUAAACCACAUUGUACUUUUUUUUACUUUGGCAACAAAUAUUUAUACAUACAAG: 0.444
CAUUAUUUUUCCAAGUGUUUAGGUAAUAAUGUAUUACUUUGAAUUCAGAUUAAUGUUCUACUACUUGUGACUGAGAAAAGUUUAAUGCCGGCAUGGUAAAAGGAAGCUGU: 1.6

Block 3 — method: universal PBM; molecule type: double-stranded DNA, one strand shown; matrix: in vitro; concentration: 600 nM; direction: higher = stronger binding; measurement: E-score
Target: Sal-like protein 4, full length isoform A (SALL4, Homo sapiens, UniProt Q9UJQ4, residues 1-1053)
UniProt Q9UJQ4, sequence (whole entry, looked up): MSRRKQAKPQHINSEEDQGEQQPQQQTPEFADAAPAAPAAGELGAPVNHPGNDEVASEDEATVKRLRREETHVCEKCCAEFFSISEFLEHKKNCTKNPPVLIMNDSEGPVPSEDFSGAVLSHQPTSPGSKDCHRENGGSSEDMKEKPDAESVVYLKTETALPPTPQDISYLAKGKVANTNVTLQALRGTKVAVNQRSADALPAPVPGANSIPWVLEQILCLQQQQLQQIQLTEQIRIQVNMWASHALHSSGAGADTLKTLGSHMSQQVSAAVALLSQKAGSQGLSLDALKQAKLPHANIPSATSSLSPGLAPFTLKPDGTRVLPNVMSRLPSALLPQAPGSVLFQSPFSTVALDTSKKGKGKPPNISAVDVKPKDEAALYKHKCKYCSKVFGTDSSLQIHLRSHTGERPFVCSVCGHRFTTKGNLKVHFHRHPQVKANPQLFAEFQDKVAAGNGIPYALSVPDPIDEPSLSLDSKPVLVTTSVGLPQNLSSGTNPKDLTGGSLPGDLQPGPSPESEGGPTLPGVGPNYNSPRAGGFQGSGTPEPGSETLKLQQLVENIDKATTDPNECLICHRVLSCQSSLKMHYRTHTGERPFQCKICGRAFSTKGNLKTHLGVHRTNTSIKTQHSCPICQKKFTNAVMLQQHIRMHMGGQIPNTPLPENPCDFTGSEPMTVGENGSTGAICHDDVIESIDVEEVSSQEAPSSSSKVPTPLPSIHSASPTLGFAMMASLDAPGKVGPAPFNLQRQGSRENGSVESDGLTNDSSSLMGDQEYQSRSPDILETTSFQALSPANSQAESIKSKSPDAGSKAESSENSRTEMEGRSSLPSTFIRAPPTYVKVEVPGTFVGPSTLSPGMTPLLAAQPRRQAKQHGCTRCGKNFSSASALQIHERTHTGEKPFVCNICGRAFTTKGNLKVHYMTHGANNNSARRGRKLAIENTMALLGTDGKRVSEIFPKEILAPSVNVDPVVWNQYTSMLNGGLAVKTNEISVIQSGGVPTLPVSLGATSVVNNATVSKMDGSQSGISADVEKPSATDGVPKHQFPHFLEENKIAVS
Setting: 8-mer, flanks averaged, mean of replicates
GGGGGTAA: -0.163
AACGCGCG: -0.138
CCACTCTA: 0.0767
AAATTACG: 0.241
AGTCTGGC: -0.181
GTCACGAA: 0.0267
GCGCTCGA: -0.141
CACCGCGA: -0.365
GAACTCAA: -0.0517
AGAGTAGG: 0.083
TACAAGGA: 0.028
ACTACTAG: 0.0817
GACAAGGC: -0.23
GATGCACC: -0.0995
ACCCAGGA: -0.206
GGGTATTA: 0.146
GGCCCATA: -0.0908
TGCTGCAA: 0.102
ACTGAACG: -0.0327
GAGTACCC: -0.238
CTTCTATA: 0.263

Block 4 — method: RNA Bind-n-Seq; molecule type: RNA; matrix: in vitro; concentration: not given; baseline: input RNA pool; direction: higher = stronger binding; measurement: bound/input enrichment
Target: RING finger protein unkempt homolog, zinc fingers 1-6, GST-SBP tag (UNK, Homo sapiens, UniProt Q9C0B0, residues 30-357)
Setting: RNA with constant flanks, human-mouse chimeric sites, ends assumed
Shared flanks, not repeated: GGGAGUUCUACAGUCCGACGAUC … CAACAGAGGAUUGAGCAUCA
Residues (chain): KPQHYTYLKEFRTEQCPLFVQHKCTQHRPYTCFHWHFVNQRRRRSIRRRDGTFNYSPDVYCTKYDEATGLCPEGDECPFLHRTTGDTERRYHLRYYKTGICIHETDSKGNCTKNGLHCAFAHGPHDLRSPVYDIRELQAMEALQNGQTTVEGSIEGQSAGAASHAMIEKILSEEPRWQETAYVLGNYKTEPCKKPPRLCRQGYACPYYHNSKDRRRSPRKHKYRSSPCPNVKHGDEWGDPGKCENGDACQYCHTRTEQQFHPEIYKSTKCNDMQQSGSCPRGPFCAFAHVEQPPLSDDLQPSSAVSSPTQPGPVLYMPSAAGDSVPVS
CACACACUCUUCUGCGGGACCCUCAUCUUGCAGGCCCGAGCCUACGUGGGACCCCGUGUCCUGGCAGUGGUGACCCGCACAGGGUUCUGCACGGCAAAAGGGGGCCUGGUGAGCUCCAUC: 0.0637 ratio
GAUGAUAAUCACACAAACAAGUCACUGUUAUGUGACCAGCCUUGGGAUUCUUUUCCUGAUUAGUAUUCUCCCUGGAACCACUGGUCAAGGGGAAUCAAGACGACAAGAACCCGGGGACUU: 0.158 ratio
CUUAAUGAUAUUUUGAGUAAAGGAAGCAAGCUAAAAUGUCUGCUUUUGGUACAACACGCAUUAAUAAAAGGUUAAGUUUUGUUUUCCACUGAAGUACUAUUUAACAUCUCAGAAAAAAAC: 0.114 ratio
UCUUAACUUAUUCAUUUAACUUAUUUUUAUAGCUAGAUAAAUAUUGUUAGUCUUAGACAAUAGCUCACAUCUUUACAGAAGCAUGCCCUCCCUGUCCAUUGGGCCCAUAACAUGACCCAG: 9.38 ratio
UGACAAGGGCACUGCAGGGCCAUGCCUUUCCUUGACAUACAGAAAAAGCUGGGCAUCAGCCUGGACCGAUGGUUGACGUUCCUAAGCGCAGAACAGCCCUAUAAGAACGCCGCUCGGUGC: 0.0694 ratio
CGCUUGGAUGAGGCGGGUGUUACUGAUGAAGUGCUAGAUUCUGCCAUGCAAGCCUUCCUUCUGGAGGUCAUUGUUAAACAUGGGGAGCCGGCACCUUAUUUAUGUAAUAAAGAUCCUUUU: 0.139 ratio
ACUCAGAGAUCCACCUCCCAAAGUGCUGGGAGUAAAGUCUGAUAUUACACACCUAACUUGAUGGAUAUUUUAUAAAGUUAAUAUGAAUCUUCCUGUUCGUCCAGGGAAGAAAGAUUUGUU: 0.315 ratio
AACAUUUUGUCAAAUUGUUAUGUUCCUGUGAAACAAGUGAACACUCUUCAUAUACUAAUCUGCUUGUACAUCUGUAUGAUAGAGAAAUGUAAAUAUGUUAAUCCAAGCAAUGUGUCACUU: 0.233 ratio

Block 5 — method: competition protein-binding microarray; molecule type: double-stranded DNA, one strand shown; matrix: in vitro; concentration: 2 µM; with: Cbf1 competitor, 0.05 µM; direction: higher = stronger binding; measurement: fluorescence intensity; shared flanks, not repeated: … GTCTTGATTCGCTTGACGCTGCTG
Target: Phosphate system positive regulatory protein PHO4, full length, GST-tagged (PHO4, Saccharomyces cerevisiae, UniProt P07270, residues 1-312)
Setting: whole 60-bp probe, lowest competitor level
Residues (chain): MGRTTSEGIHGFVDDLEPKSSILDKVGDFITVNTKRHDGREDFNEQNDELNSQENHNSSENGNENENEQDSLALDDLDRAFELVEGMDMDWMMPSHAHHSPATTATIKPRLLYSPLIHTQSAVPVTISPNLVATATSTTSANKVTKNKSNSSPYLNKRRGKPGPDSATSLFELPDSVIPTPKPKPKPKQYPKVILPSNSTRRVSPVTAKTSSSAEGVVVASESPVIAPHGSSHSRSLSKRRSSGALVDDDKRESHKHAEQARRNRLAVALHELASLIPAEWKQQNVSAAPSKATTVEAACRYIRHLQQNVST
TCTTTGAAGGTGCGTCATGCTCACTGTTGAACTCTA: 5530 a.u.
CTTTCCCGATCTTGGCATGTGGGTGTAGCACATTTG: 11600 a.u.
GCGCAATTCGCCAAGTTCGTGACGGAATTCTTCGGG: 3860 a.u.
TACCAGGTCTTTTAGCACGCTGAACATAATACACAG: 7730 a.u.
AAAGCGGTAATTTGTCACTGTACTTCACATATCTAT: 3240 a.u.
GAAACGTCGGGTAGTTTCGTGCCGACTTAAGTGCCT: 4620 a.u.
TGCGCAACAACTTGTTTTGTGGGTGTATGTCTAGAA: 4520 a.u.
CACATAACCACTTGTCACCTGTGCATTCTTACTTTT: 5880 a.u.
CCAGCAGTGCCTGCCCACGTGAGCTAGGCGACATCC: 15400 a.u.
CATACCCAACCTTGACAAGTGGGTGAAGATATTTGT: 3900 a.u.
CTAACGAAGGTTTGTAACGTGGGTGACAAGCCAAGT: 9450 a.u.
AAATTACTAAGTTAACACGTGTTTTACCCCGTATGA: 18600 a.u.
AGTTGCCACAGGAGTTGCGTGACGGGTTGATAAAGG: 6100 a.u.
ATTTTTACGGTTACCCACGTACTGCCAGCCATTAGA: 7760 a.u.
CATTTGAAGGTTCGGCACGTGCTTTACCCCAAAGGT: 17800 a.u.
TTGCTGTCCAGCAAAAACGTGATGGCCACTTCGGAC: 11500 a.u.
CTTCTGTAAATTTCGCACGTGTTTTGACGCGCCCCG: 16700 a.u.
GTGTATCTTTTCTTTGCTAATTATACGCTGACATGA: 5150 a.u.
